Experimental data of several laboratories.
Each numbered part is a random draw from the data of one study; scales do not carry over between parts. Substitutions count along the parent as printed.

Set 1
Target: RNA binding protein fox-1 homolog 2, RRM domain, GST-SBP tag (RBFOX2, Homo sapiens, UniProt O43251-10, residues 100-194)
Technique: RNA Bind-n-Seq
Molecule type: RNA
Sample: in vitro
Tested at: 365 nM
Notes: natural RNA segment, single round, ends assumed
Baseline: no-protein control
Direction: higher = stronger binding
All sequences stand within: GGGAGUUCUACAGUCCGACGAUC … UGGAAUUCUCGGGUGCCAA
Residues (chain): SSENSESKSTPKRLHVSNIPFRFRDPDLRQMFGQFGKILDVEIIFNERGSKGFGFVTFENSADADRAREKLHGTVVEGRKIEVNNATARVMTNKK
`UUGUGGAAAAUAUCAGCGUCGCUACCCUCAGAAACAAACUAACAGCACACGUUAGGAGGAGUCCUCAUCAGCUGUUCUCAUUGCCAGUGAGAUAUAUUCAGUAUUGUAGA`: “RBNS enrichment (R)” 0.41.
`AGUACCAGUUCUGCCAGCCACAGUGAGCCCCUAUUAUUACUUUCAGAUUGUCUGUGACACUCAAGCCCCUCUCAUUUUUAUCUGUCUACCUCCAUUCUGAAGAGGGAGGU`: “RBNS enrichment (R)” 0.796.
`AGACAACAUCUGCUUACCUGGCAGAACUCCCCACUCCACUCCCCCAGGUGGGCUGGGUGGAAGGACCCUCAGCCACCAAGAACUGACGCCCUCAUGGCCCUAGACUAUGG`: “RBNS enrichment (R)” 0.474.
For `CAGACUCCUCUGACCUGGAUGCGGUCACAUCCACCUUUAAGAUUGUCAGUGCAUACUCCUUCCUGACGAUCCCCUGGGGCAAGCUGCCGACAGUGGCGUAAACAGGAGAC`, “RBNS enrichment (R)” read 0.374.
`UAAGCAAAUCCCACUGCCCUUAAAAUAAGGAAGUUAUGCCUGGUUGUCUGUGAAUGGAACCUCAGUAGGUAAUCCUGAUGAAGCUUAAAACCUUAGGGCAGUGUCUACAU`: “RBNS enrichment (R)” 0.326.
Under “RBNS enrichment (R)”, `CAUUUAAAGCUGUUCAUCCAUGGUGCCUCCCCAAAUCAUAAGACCAAAGACCACCAAACGCAGGGUGGACUCUGCUCAUUAUUCUUUGACCCAGAAAGACUGGAGAAGGU` is recorded as 0.389.
`GCCAGGCUGUGCUAGCAACACCCAAAGGUGGCCUGCGGGGAGCCAUCACCUAGGACUGACUCGGCAGUGUGCAGUGGUGCAUGCACUGUCUCAGCCAACCCGCUCCACUA`: “RBNS enrichment (R)” 0.593.
`UGUUUUUUCUGGUCCCUGAGUCUGGCAUUUCUGUCUGUGACUUAGCUAUGUUUCUGAUGCCAAUCACACUAGCACCAUUACAUGCUGGGCAGGUGCUGGGCAGCACAGAC`: “RBNS enrichment (R)” 0.425.

Set 2
Target: Prothrombin, mature alpha-thrombin (F2, Homo sapiens, UniProt P00734)
Technique: aptamer microarray, sandwich
Molecule type: DNA with 2'F-ANA
Sample: in vitro
Tested at: 200 nM
Notes: whole 15-mer aptamer, many near background
With: Cy3 exosite-II aptamer, 400 nM
Direction: higher = stronger binding
Strand: GGTTGGTGTGGTTGG
Under “mean fluorescence intensity”, `2'F-ANA at 1 5 7 8 9 11 13 14 15` is recorded as 47.2 a.u.
Under “mean fluorescence intensity”, `2'F-ANA at 2 3 4 6 8 10 13` is recorded as 193 a.u.
`2'F-ANA at 2 5 6 8 9 12`: “mean fluorescence intensity” 175 a.u.
For `2'F-ANA at 1 3 4 5 7 11 13`, “mean fluorescence intensity” read 85.2 a.u.
For `2'F-ANA at 1 3 6 7 9 10 11 15`, “mean fluorescence intensity” read 69 a.u.
`2'F-ANA at 3 5 6 7 8 10 11 13 14 15`: “mean fluorescence intensity” 70.4 a.u.
Under “mean fluorescence intensity”, `2'F-ANA at 2 3 6 7 8 10 13 15` is recorded as 299 a.u.
For `2'F-ANA at 4 5 8 9 10 12 13 14`, “mean fluorescence intensity” read 45.6 a.u.

Set 3
Target: Histone acetyltransferase KAT6A, winged helix 2, GST fusion (KAT6A, Homo sapiens, UniProt Q92794, residues 85-181)
Technique: protein binding microarray
Molecule type: double-stranded DNA, one strand shown
Sample: in vitro
Tested at: not given
Notes: 8-mer, flanks averaged, mean of 2 arrays, mostly near background
Baseline: not given
Direction: higher = stronger binding
Residues (chain): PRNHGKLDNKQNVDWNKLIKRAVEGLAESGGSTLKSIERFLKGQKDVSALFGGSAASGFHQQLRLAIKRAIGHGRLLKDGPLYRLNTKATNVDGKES
With `ACCGTCCT` the E-score was -0.0682.
For `GATGAAGA`, the E-score was 0.0368.
`GCGGCAGC` has an E-score of 0.0655.
`CTTACAGA` gave an E-score of -0.107.
`GCGGGGCA` gave an E-score of 0.144.
`AGCTACGG` gave an E-score of -0.0706.
With `CCTTACAA` the E-score was -0.0182.
`CACTAGTC` gave an E-score of -0.161.

Other studies, line by line
Starting sequence: PafA, mature enzyme, eGFP fusion (Elizabethkingia meningoseptica, UniProt Q9KJX5); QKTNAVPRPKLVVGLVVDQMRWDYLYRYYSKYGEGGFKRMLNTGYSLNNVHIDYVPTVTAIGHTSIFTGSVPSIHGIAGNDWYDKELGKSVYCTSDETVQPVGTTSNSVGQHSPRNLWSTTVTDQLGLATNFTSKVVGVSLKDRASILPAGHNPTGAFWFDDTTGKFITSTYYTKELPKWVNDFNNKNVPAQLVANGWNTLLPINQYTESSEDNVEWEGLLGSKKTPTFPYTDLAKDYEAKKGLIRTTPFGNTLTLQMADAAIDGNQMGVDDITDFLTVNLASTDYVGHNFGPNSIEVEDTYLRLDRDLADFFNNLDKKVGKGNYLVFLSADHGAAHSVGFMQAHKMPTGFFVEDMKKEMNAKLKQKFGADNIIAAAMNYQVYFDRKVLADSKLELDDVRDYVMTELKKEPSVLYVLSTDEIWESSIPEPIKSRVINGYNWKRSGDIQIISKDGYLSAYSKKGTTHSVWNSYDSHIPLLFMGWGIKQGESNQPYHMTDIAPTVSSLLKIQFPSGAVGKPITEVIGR
`L177G`: “phosphate dissociation constant” 494 µM (inorganic phosphate, free oxyanion; microfluidic competitive inhibition; in vitro, cell-free expressed; not given, derived from inhibition constants, unchanged parent 615000 nM; lower = stronger binding).

A few entries again (set 3):
`AGCTACGG` gave an E-score of -0.0706.
With `CCTTACAA` the E-score was -0.0182.
`CACTAGTC` gave an E-score of -0.161.
